Measurements of several laboratories.
Every numbered part comes from another study and shows a few of its results, in no order.
UniProt Q05940, sequence (whole entry, looked up): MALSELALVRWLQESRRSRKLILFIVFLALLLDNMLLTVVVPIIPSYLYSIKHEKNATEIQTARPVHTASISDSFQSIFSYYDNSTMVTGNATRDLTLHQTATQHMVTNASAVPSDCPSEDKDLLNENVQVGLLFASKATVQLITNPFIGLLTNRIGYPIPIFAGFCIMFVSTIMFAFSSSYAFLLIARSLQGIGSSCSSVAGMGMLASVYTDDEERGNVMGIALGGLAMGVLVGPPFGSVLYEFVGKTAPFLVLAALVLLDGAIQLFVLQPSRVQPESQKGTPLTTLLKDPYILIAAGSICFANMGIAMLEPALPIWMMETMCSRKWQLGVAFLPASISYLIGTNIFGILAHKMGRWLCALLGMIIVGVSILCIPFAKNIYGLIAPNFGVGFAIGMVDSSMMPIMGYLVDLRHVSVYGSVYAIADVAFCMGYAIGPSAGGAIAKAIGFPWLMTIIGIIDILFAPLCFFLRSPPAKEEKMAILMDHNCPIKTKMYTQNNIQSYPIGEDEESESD

Block 1 — method: RNA Bind-n-Seq; form: RNA; matrix: in vitro; tested at: not given; reference: input RNA pool; direction: higher = stronger binding
Target: RING finger protein unkempt homolog, zinc fingers 1-6, GST-SBP tag (UNK, Homo sapiens, UniProt Q9C0B0, residues 30-357)
Setting: RNA with constant flanks, human-mouse chimeric sites, ends assumed
Constant ends, left off below: GGGAGUUCUACAGUCCGACGAUC … CAACAGAGGAUUGAGCAUCA
Residues (chain): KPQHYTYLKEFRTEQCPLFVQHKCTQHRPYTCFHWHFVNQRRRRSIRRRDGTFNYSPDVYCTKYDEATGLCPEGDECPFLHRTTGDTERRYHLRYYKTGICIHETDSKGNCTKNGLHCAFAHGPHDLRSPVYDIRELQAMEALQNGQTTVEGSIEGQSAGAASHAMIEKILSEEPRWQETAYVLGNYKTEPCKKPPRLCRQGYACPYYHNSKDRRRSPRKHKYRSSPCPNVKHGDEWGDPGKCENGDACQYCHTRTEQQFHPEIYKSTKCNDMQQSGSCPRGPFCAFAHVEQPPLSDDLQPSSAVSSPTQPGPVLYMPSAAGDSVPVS
| Sequence | bound/input enrichment |
| --- | --- |
| UUGAAAAACACAGAUAUCAAAGUUGUUGACUUUGGAAGUGCAACGUAUGAUGAUGAACAUCACAGUACUUUGGUGUCUACCCGGCACUACAGAGCUCCCGAGGUCAUUUUGGCUUUAGGU | 0.226 ratio |
| AGAGAUAAGACAUCCAGAAAUAUGAGAGGGUCACGGAUGAAUGGGUUGCCUAGCCCCACUCACAGCGCCCACUGUAGCUUCUACCGAACCAGAACCUUGCAGGCACUGAGUAAUGAGAAG | 0.161 ratio |
| GCAAAGGAUGAUGAGGCGGCAGCUGUUGCCCUUUCCUCUCUCGUUCAUGCUUUGGAUGACUUAGACAUGGUCGCCAUCGUCCGAUAUGCUUAUGACAAAAGAGCUAAUCCUCAAGUUGGU | 0.191 ratio |
| UGGCGCCUGCGCUCCCCACUCGUGUUUUUAAGUGUAUUUUUAUAAGAUACAUGUAUUUACAAUUGAGUUUUUGAUUAAUAAUGCUGAAAUGCUACUGCAAUAUUAUGAAAAUGUUUCAAU | 0.0684 ratio |
| UGUGCAUAUGAUGCUUGGAGAUGGUUUUGCAAAAGCAGAAAUCGCUGCAAGGUAAUCACAAUAGAUACAAGCGGUAUUUUAAACCUUUGAAAUAAAUGGAUGUAACUGUACCUUGGUACA | 0.28 ratio |
| AACGUGGAGUUGAGUUCCUUGGCCCGGCUUCCCAGCUUGAAUAAACUUCGAAAAUUGGAACUUAGUGACAAUAUAAUUUCUGGAGGCUUGGAAGUCCUGGCAGAGAAAUGUCCAAAUCUU | 0.532 ratio |
| GUGACAGGUGUUAAGAUUUCCCCUCAGCAAAGAAGUGCAGUAGUCACCAUAAUUCCAUCUGUGGUGAGUGCCAGUCAGAUUGUGGAGCUGGUCCCAGACCUCAGUUUAGACAUGGGAACU | 0.266 ratio |
| CUGGCACUCUAUCAGAUAGAUUACUUUUUUAAUGUAGAUAAAAUUUCAAAAAUGAAUGGCUACUUUACACGUUUAACUAGGGUUUUACUAUAUAUGUGUACAUAUGUAUAUAUAUAUAUA | 43 ratio |

Block 2 — method: protein binding microarray; form: double-stranded DNA, one strand shown; matrix: in vitro; tested at: not given; reference: not given; direction: higher = stronger binding
Target: Histone acetyltransferase KAT6A, winged helix 2, GST fusion (KAT6A, Homo sapiens, UniProt Q92794, residues 85-181)
Setting: 8-mer, flanks averaged, mean of 2 arrays, mostly near background
Residues (chain): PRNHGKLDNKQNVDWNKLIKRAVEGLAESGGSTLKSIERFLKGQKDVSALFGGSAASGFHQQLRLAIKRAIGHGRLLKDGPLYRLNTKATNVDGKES
| Sequence | E-score |
| --- | --- |
| AGTCTGGC | -0.0281 |
| ACCTCGAT | 0.127 |
| CGGTGCCC | 0.179 |
| CTGGCAGC | 0.0503 |
| CATTAAAA | 0.267 |
| AGGCGGGA | 0.158 |
| CAATCTAA | -0.0727 |
| GAACCGGA | 0.0769 |

Other studies, line by line
| Molecule | target | assay | test system | setting | how to read | measurement | value |
| --- | --- | --- | --- | --- | --- | --- | --- |
| PhoQ, residues 284 288 289 292 302 303 ASTSDA | PhoP, residues 12 14 15 18 19 TPWLV (Escherichia coli, UniProt P23836) | Sort-seq, measured: YFP reporter | E. coli | PhoQ-PhoP variant library, with: 10 µM Mg2+ | reference: high Mg2+ state, higher = stronger signaling | fold induction | 8.78 |
| Cc1nc2n(c(=O)c1CCN1CCC(c3noc4cc(F)ccc34)CC1)CCCC2 | Synaptic vesicular amine transporter (SLC18A2, Homo sapiens, UniProt Q05940) | inhibitor | – | literature data | – | IC50 | 1640 nM |

Some of these lines once more (block 2):
| Sequence | E-score |
| --- | --- |
| CGGTGCCC | 0.179 |
| GAACCGGA | 0.0769 |
